Measurements pooled from the literature.
Parts stem from different laboratories: compare values within a part only.
Chain of UniProt P15056 (whole entry, looked up): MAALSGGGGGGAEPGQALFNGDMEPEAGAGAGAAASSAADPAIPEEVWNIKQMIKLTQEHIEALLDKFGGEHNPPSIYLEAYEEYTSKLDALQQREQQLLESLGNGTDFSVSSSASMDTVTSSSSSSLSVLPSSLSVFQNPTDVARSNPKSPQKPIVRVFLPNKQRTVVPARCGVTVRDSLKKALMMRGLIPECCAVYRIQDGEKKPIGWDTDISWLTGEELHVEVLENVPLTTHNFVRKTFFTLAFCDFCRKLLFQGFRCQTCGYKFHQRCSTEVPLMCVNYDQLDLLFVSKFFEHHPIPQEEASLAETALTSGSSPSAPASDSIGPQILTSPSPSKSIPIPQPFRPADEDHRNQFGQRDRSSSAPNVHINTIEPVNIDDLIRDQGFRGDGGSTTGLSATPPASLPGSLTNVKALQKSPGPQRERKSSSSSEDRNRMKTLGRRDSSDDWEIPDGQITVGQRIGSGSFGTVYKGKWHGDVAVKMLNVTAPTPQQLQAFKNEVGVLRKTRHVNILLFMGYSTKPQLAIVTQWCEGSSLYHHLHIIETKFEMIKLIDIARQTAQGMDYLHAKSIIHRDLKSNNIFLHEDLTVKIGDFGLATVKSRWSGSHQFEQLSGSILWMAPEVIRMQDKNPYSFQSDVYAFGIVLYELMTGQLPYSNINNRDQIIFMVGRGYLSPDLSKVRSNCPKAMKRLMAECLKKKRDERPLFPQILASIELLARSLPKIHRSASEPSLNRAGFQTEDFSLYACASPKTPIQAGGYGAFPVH

Sample 1 — technique: RNA Bind-n-Seq; form: RNA; medium: in vitro; concentration: 20 nM; setting: 6-mer, flanks averaged, single round; with: 150 mM KCl; baseline: input library; direction: higher = stronger binding
Target: TAR DNA-binding protein 43, full length, His tag (TARDBP, Homo sapiens, UniProt Q13148, residues 1-414)
| Oligonucleotide | 6-mer enrichment (R) |
| --- | --- |
| UGCACU | 0.63 |
| CCAUAG | 0.685 |
| AACGGC | 0.831 |
| UGUUAG | 0.884 |
| CAUUUC | 0.568 |
| CGCAAG | 0.929 |
| AGAGAC | 0.834 |
| CAUCGA | 0.611 |

Sample 2 — technique: RNA Bind-n-Seq; form: RNA; medium: in vitro; concentration: 1 µM; setting: whole 134-nt RNA, ends assumed; with: 150 mM KCl; baseline: input library; direction: higher = stronger binding
Target: Ras GTPase-activating protein-binding protein 1, C-terminal RGG region (G3BP1, Homo sapiens, UniProt Q13283)
Chain of UniProt Q13283 (whole entry, looked up): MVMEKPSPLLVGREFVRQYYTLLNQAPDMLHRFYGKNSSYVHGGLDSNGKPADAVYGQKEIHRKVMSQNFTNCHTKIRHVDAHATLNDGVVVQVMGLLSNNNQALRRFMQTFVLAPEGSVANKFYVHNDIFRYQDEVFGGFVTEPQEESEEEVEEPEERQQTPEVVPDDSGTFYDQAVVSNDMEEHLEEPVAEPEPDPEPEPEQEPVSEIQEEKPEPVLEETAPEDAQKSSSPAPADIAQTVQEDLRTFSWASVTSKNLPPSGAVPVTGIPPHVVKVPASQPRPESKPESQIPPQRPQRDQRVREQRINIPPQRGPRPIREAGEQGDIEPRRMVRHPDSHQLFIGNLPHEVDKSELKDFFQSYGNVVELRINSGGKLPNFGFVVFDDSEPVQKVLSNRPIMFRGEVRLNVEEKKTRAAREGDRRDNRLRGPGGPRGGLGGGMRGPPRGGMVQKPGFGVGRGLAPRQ
Constant ends, left off below: GGGAGUUCUACAGUCCGACGAUC … UGGAAUUCUCGGGUGUCAAGG
| Oligonucleotide | log2 enrichment |
| --- | --- |
| AGUCCUGUGCUACACAUCGUAUGUACCGAAUCGGGCCCCGGGGCCCCGGGCCCCGGGAAAGUAUUAUGUUACGCCGUUCGGAUCUGCACU | -2.83 |
| ACCAUGCAGGUGGGCAUCUUUGGGAAGUGGGGCAAUGGGGGGAUAGGGAGGGGGGUAACACUUUGGGAACAGGUGGUCCCAGGUCGUUUC | -0.747 |
| UGGUGUUAUUUUUGCACUACAAGGGCUCUGAAGACUGCCAGGCUUGAAAUGAAGAACGAUGUCACCUGCCUAUCACAGCCAGGUGACAAU | -2.26 |
| GUCCUGUGCUACACAUCGUAUGUACCGAAUCGGGAAAGGGAAAAAGGGUUUUUUUGGGAAAGUAUUAUGUUACGCCGUUCGGAUCUGCAC | -0.193 |
| CAAGUCCUGUGCUACACAUCGUAUGUACCGAAUCGGGGCCCCGGCCCCGGCCCCGGAAAGUAUUAUGUUACGCCGUUCGGAUCUGCACUU | -1.76 |
| CUGUGCUACACAUCGUAUGUACCGAAUCGGGGUUUUUUGGGGUUUUUUGGGGUUUUUUGGGGAAAGUAUUAUGUUACGCCGUUCGGAUCU | -0.146 |
| GUCCUGUGCUACACAUCGUAUGUACCGAAUCGGCCCCCCGGCCCCCCGGGGCCCCCCGGAAAGUAUUAUGUUACGCCGUUCGGAUCUGCA | -0.825 |
| UGGCCCUGGUGGCAUGCGGGGAGGAAGAGGUGGCCUCAUGGAUCGUGGUGGUCCCGGUGGAAUGUUCAGAGGUGGCCGUGUUGGAGACAG | 3.44 |

Sample 3 — technique: aptamer microarray, sandwich; form: DNA with 2'F-ANA; medium: in vitro; concentration: 200 nM; with: Cy3 exosite-II aptamer, 400 nM; direction: higher = stronger binding; oligonucleotide: GGTTGGTGTGGTTGG
Target: Prothrombin, mature alpha-thrombin (F2, Homo sapiens, UniProt P00734)
Setting: whole 15-mer aptamer, many near background
| Modification | mean fluorescence intensity [a.u.] |
| --- | --- |
| 2'F-ANA at 1 2 3 4 5 6 9 10 14 | 47.8 |
| 2'F-ANA at 3 5 7 9 10 11 12 15 | 64.2 |
| 2'F-ANA at 1 2 4 5 6 8 9 13 | 53.5 |
| 2'F-ANA at 3 4 5 6 7 12 13 14 15 | 51.4 |
| 2'F-ANA at 3 6 7 8 9 11 12 14 | 650 |
| 2'F-ANA at 4 6 8 11 12 14 | 104 |
| 2'F-ANA at 3 4 11 13 | 635 |
| 2'F-ANA at 2 3 4 6 7 8 9 11 13 14 | 190 |

Single results of other studies
| Structure (SMILES) | target | observed | action | concentration | baseline | endpoint | result |
| --- | --- | --- | --- | --- | --- | --- | --- |
| N#CC(=C(N)Sc1ccc(N)cc1)c1ccccc1C(F)(F)F | Serine/threonine-protein kinase B-raf (BRAF, Homo sapiens, UniProt P15056) | enzyme activity | inhibitor | 0.5 µM | control | remaining activity | 95% |
